Experimental data collected from several papers.
Each line is one published result; not all experiments were run side by side. ± gives the spread as reported.

O=C(/C=C/c1ccc(O)c(O)c1)O[C@H](Cc1ccc(O)c(O)c1)C(=O)O — Cmax (UPLC-MS/MS; Wistar rat, microcirculation dysfunction model, plasma; oral, 100 mg/kg Salvia miltiorrhiza stem-leaf extract FS): 75.3 ± 8.79 ng/mL
CCC[C@@]1(CCc2ccccc2)CC(O)=C([C@H](CC)c2cccc(NS(=O)(=O)c3ccc(C(F)(F)F)cn3)c2)C(=O)O1 — Cmax (Sprague Dawley rat, male, plasma; oral, 5 mg/kg, long-chain triglyceride formulation): 1940 ± 204 ng/mL
CC(C)=CCC[C@](C)(O[C@@H]1O[C@H](CO[C@@H]2O[C@H](CO)[C@@H](O)[C@H](O)[C@H]2O)[C@@H](O)[C@H](O)[C@H]1O)[C@H]1CC[C@]2(C)[C@@H]1[C@H](O)C[C@@H]1[C@@]3(C)CC[C@H](O[C@@H]4O[C@H](CO)[C@@H](O)[C@H](O)[C@H]4O[C@@H]4O[C@H](CO)[C@@H](O)[C@H](O)[C@H]4O)C(C)(C)[C@@H]3CC[C@]12C — Cmax (Sprague Dawley rat, male, plasma; oral, 86 mg/kg, in frozen ginseng extract): 6900 ± 1710 ng/mL
CCN1CCN(c2ccc(Nc3cc(N(C)C(=O)Nc4c(Cl)c(OC)cc(OC)c4Cl)ncn3)cc2)CC1 — Cmax (LC-MS/MS; juvenile male Crl:WI(Han) rats, plasma; oral gavage, 0.1 mg/kg/day, postnatal day 17): 2.99 ng/mL
Cc1cc(C(=O)NC(C)(C)COc2cccc3c2C(N)=NS(=O)(=O)N3)cc(C)n1 — Cmax (Sprague-Dawley rat, both sexes, plasma; oral, diet, 140 mg/kg, day 91, 13-week dietary study): 222 ng/mL
O=C(/C=C/c1ccc(O)c(O)c1/C=C/c1ccc(O)c(O)c1)O[C@H](Cc1ccc(O)c(O)c1)C(=O)O — Cmax (UPLC-MS/MS; Wistar rat, microcirculation dysfunction model, plasma; oral, 100 mg/kg Salvia miltiorrhiza stem-leaf extract FS): 11.5 ± 4.39 ng/mL
C=C(c1ccc(C(=O)O)cc1)c1cc2c(cc1C)C(C)(C)CCC2(C)C — Cmax (male Sprague-Dawley rats, plasma; oral, 100 mg/kg, sesame oil vehicle): 8520 ng/mL
CS(=O)(=O)c1ccc(-c2cnc(N)c(-c3ccc(C(F)(F)F)nc3)c2)cc1 — Cmax (Sprague-Dawley rat, pregnant female, plasma; oral, 30 mg/kg/day, gestation day 6): 9120 ng/mL
COc1ccc(/C=C\c2cc(OC)c(OC)c(OC)c2)cc1OP(=O)(O)O — Cmax (Sprague-Dawley rat male, plasma; intravenous, 28 mg/kg): 50200 ± 12000 ng/mL
Cn1nnc2c(C(N)=O)ncn2c1=O — Cmax (male athymic rat, intracranial U87 glioma, tumour extracellular fluid; oral, 50 mg/kg, uncorrected microdialysis, added: after cediranib): 600 ± 380 ng/mL
O=C(/C=C/c1ccc(O)c2c1[C@H](C(=O)O)[C@@H](c1ccc(O)c(O)c1)O2)O[C@H](Cc1ccc(O)c(O)c1)C(=O)O — Cmax (UPLC-MS/MS; Wistar rat, microcirculation dysfunction model, plasma; oral, 100 mg/kg Salvia miltiorrhiza stem-leaf extract FS): 22.1 ± 7.33 ng/mL
C=CC(N)CCC(=O)O (stereo not shown) — Cmax (male Sprague-Dawley rat, plasma; oral, 10 mg/kg, formulation 10, added: Sar 200 mg/kg): 9480 ± 738 ng/mL
CC(C)=CCC[C@](C)(O[C@@H]1O[C@H](CO)[C@@H](O)[C@H](O)[C@H]1O)[C@H]1CC[C@]2(C)[C@@H]1[C@H](O)C[C@@H]1[C@@]3(C)CC[C@H](O[C@@H]4O[C@H](CO)[C@@H](O)[C@H](O)[C@H]4O[C@@H]4O[C@H](CO)[C@@H](O)[C@H](O)[C@H]4O)C(C)(C)[C@@H]3CC[C@]12C — Cmax (Sprague-Dawley rat, plasma; oral, 2000 mg/kg ginseng extract, diet with NUTRIOSE 5% for 2 weeks): 1080 ± 422 ng/mL
CCNCc1cc(Nc2ccnc3cc(Cl)ccc23)ccc1O — Cmax (Wistar rat, plasma; oral, 60 mg/kg amodiaquine, added: myricetin 5 mg/kg i.v. pretreatment): 396 ± 32 ng/mL
O=C(NC[C@H]1CN(c2ccc(N3CCOCC3=O)cc2)C(=O)O1)c1ccc(Cl)s1 — Cmax (Sprague-Dawley rat, male, plasma; oral, 10 mg/kg, added: naringenin 10 mg/kg/day oral, 2 weeks): 509 ± 152 ng/mL
Cc1nc2cccc(OCC(C)(C)C(=O)NC(C)C)c2c(N)c1C(=O)O — Cmax (female Sprague-Dawley rat, plasma; oral gavage, 10 mg/kg, day 7): 32.7 ± 9.7 ng/mL
NC(=O)c1cnc2[nH]ccc2c1N[C@@H]1[C@@H]2CC3C[C@H]1C[C@@](O)(C3)C2 — Cmax (Japanese, moderate hepatic impairment, plasma; oral, 150 mg single dose, mean): 674 ng/mL
Cc1cc(Nc2cc3ncccc3c(N[C@@H]3C[C@H]4CC[C@@H](C3)N4CCC#N)n2)n[nH]1 — Cmax (Sprague-Dawley rat, male, plasma; oral, 100 mg/kg/day, last day of 13 weeks): 8.55 ng/mL
CC(C)=CCC[C@](C)(O[C@@H]1O[C@H](CO)[C@@H](O)[C@H](O)[C@H]1O)[C@H]1CC[C@]2(C)[C@@H]1[C@H](O)C[C@@H]1[C@@]3(C)CC[C@H](O[C@@H]4O[C@H](CO)[C@@H](O)[C@H](O)[C@H]4O[C@@H]4O[C@H](CO)[C@@H](O)[C@H](O)[C@H]4O)C(C)(C)[C@@H]3CC[C@]12C — Cmax (Sprague Dawley rats, male, plasma; oral, 42 mg/kg, aqueous solution, added: co-dosed pure ginsenoside mixture): 800 ± 150 ng/mL
CC(C)=CCC[C@](C)(O[C@@H]1O[C@H](CO)[C@@H](O)[C@H](O)[C@H]1O)[C@H]1CC[C@]2(C)[C@@H]1[C@H](O)C[C@@H]1[C@@]3(C)CC[C@H](O[C@@H]4O[C@H](CO)[C@@H](O)[C@H](O)[C@H]4O[C@@H]4O[C@H](CO)[C@@H](O)[C@H](O)[C@H]4O)C(C)(C)[C@@H]3CC[C@]12C — Cmax (Sprague-Dawley rat, plasma; oral, 100 mg/kg of parent ginsenoside, control group, no prebiotic): 89 ± 24.3 ng/mL
CN(CCOc1ccc(CC2SC(=O)NC2=O)cc1)c1ccccn1 (stereo not shown) — Cmax (Sprague-Dawley rat, female, plasma; intraperitoneal, 5 mg/kg of dasatinib, added: dasatinib co-dosed): 11400 ± 3790 ng/mL
C=CC(=O)Nc1cc(Nc2nccc(-c3cn(C)c4ccccc34)n2)c(OC)cc1N(C)CCN(C)C — Cmax (Sprague-Dawley rat, male, plasma; oral, 10 mg/kg, added: avitinib 30 mg/kg single dose on day 7): 88.3 ± 23.6 ng/mL
CC(C)=CCC[C@](C)(O[C@@H]1O[C@H](CO)[C@@H](O)[C@H](O)[C@H]1O)[C@H]1CC[C@]2(C)[C@@H]1[C@H](O)C[C@@H]1[C@@]3(C)CC[C@H](O)C(C)(C)[C@@H]3[C@@H](O[C@@H]3O[C@H](CO)[C@@H](O)[C@H](O)[C@H]3O)C[C@]12C — Cmax (Sprague Dawley rats, male, plasma; oral, 25 mg/kg, aqueous solution, added: co-dosed pure ginsenoside mixture): 500 ± 140 ng/mL
O=C(O)C[C@H](O)C[C@H](O)/C=C/c1c(C2CC2)nc2ccccc2c1-c1ccc(F)cc1 — Cmax (male Sprague Dawley rat, control, plasma; oral, 2.5 mg/kg, geometric mean, added: silymarin 500 mg/kg oral): 1500 nM
O=C(O)Cc1ccccc1Nc1c(Cl)cccc1Cl — Cmax (rat, plasma; oral, 10 mg/kg, added: sesamin 100 mg/kg): 2600 ± 1600 ng/mL

For quick reference, copied from above:
CC(C)=CCC[C@](C)(O[C@@H]1O[C@H](CO[C@@H]2O[C@H](CO)[C@@H](O)[C@H](O)[C@H]2O)[C@@H](O)[C@H](O)[C@H]1O)[C@H]1CC[C@]2(C)[C@@H]1[C@H](O)C[C@@H]1[C@@]3(C)CC[C@H](O[C@@H]4O[C@H](CO)[C@@H](O)[C@H](O)[C@H]4O[C@@H]4O[C@H](CO)[C@@H](O)[C@H](O)[C@H]4O)C(C)(C)[C@@H]3CC[C@]12C — Cmax (Sprague Dawley rat, male, plasma; oral, 86 mg/kg, in frozen ginseng extract): 6900 ± 1710 ng/mL
CC(C)=CCC[C@](C)(O[C@@H]1O[C@H](CO)[C@@H](O)[C@H](O)[C@H]1O)[C@H]1CC[C@]2(C)[C@@H]1[C@H](O)C[C@@H]1[C@@]3(C)CC[C@H](O[C@@H]4O[C@H](CO)[C@@H](O)[C@H](O)[C@H]4O[C@@H]4O[C@H](CO)[C@@H](O)[C@H](O)[C@H]4O)C(C)(C)[C@@H]3CC[C@]12C — Cmax (Sprague-Dawley rat, plasma; oral, 2000 mg/kg ginseng extract, diet with NUTRIOSE 5% for 2 weeks): 1080 ± 422 ng/mL
Cc1cc(Nc2cc3ncccc3c(N[C@@H]3C[C@H]4CC[C@@H](C3)N4CCC#N)n2)n[nH]1 — Cmax (Sprague-Dawley rat, male, plasma; oral, 100 mg/kg/day, last day of 13 weeks): 8.55 ng/mL
Cc1cc(C(=O)NC(C)(C)COc2cccc3c2C(N)=NS(=O)(=O)N3)cc(C)n1 — Cmax (Sprague-Dawley rat, both sexes, plasma; oral, diet, 140 mg/kg, day 91, 13-week dietary study): 222 ng/mL
